Published values collected from several papers.
Lines come from different studies, so protocols differ.
Cell line: PC-3

Structure (SMILES)	assay	conditions	scale	measurement	result
O=C1CCP(=S)(c2ccccc2)CC1	annexin V/PI flow cytometry	IC50, 72 h	–	necrotic cells	0.25%
CN1CCN(C2(CNC3CCN(c4cccc(-c5cc6cc(F)ccc6[nH]5)c4)CC3)CCC2)CC1	–	–	–	GI50	1730 nM
Cn1cncc1C1=CN(c2ncnc3[nH]cnc23)CCS1	–	prostate cancer	–	CC50	> 200000 nM
COc1c(C)c2c(c(O)c1C/C=C(\C)CCC(=O)O)C(=O)OC2	cell proliferation	–	–	IC50	1510 nM
CC(C)N1CCC(NC2CCN(c3cccc(-c4cc5cc(F)ccc5[nH]4)c3)CC2)CC1	–	–	–	GI50	1670 nM
S=P1(c2ccccc2)CCCCC1	MTT	72 h	reference: IC50 HaCaT over IC50 PC-3	selectivity index	1
COc1cc(CCC[P+](c2ccccc2)(c2ccccc2)c2ccccc2)c(OC)c2c1OCO2.[I-]	SRB	–	–	TGI	> -4 log M
CCN(CC)c1ccc(C=NNC(=O)CSc2nc3ccccc3c(=O)n2Cc2ccc(S(N)(=O)=O)cc2)c(O)c1	NCI five-dose screen	–	–	CC50	> 100000 nM
COc1c(CCC[P+](c2ccccc2)(c2ccccc2)c2ccccc2)cc2c(c1OC)OCO2.[I-]	SRB	–	–	TGI	-4.65 log M
COc1cccc2c1C(=O)c1c(O)c3c(c(O)c1C2=O)C[C@@](O)(C(=O)CO)C[C@@H]3O[C@H]1C[C@H](N)[C@H](O)[C@H](C)O1	SRB	10 µg/mL, 48 h	negative values mean cell killing	growth percent	-25.3%

Some of these lines once more:
Structure (SMILES)	assay	conditions	scale	measurement	result
CN1CCN(C2(CNC3CCN(c4cccc(-c5cc6cc(F)ccc6[nH]5)c4)CC3)CCC2)CC1	–	–	–	GI50	1730 nM
